# Assay results pooled from the literature.
# Numbered parts are unrelated; each lists some results of a single study.
# Chain of UniProt P78362 (whole entry, looked up): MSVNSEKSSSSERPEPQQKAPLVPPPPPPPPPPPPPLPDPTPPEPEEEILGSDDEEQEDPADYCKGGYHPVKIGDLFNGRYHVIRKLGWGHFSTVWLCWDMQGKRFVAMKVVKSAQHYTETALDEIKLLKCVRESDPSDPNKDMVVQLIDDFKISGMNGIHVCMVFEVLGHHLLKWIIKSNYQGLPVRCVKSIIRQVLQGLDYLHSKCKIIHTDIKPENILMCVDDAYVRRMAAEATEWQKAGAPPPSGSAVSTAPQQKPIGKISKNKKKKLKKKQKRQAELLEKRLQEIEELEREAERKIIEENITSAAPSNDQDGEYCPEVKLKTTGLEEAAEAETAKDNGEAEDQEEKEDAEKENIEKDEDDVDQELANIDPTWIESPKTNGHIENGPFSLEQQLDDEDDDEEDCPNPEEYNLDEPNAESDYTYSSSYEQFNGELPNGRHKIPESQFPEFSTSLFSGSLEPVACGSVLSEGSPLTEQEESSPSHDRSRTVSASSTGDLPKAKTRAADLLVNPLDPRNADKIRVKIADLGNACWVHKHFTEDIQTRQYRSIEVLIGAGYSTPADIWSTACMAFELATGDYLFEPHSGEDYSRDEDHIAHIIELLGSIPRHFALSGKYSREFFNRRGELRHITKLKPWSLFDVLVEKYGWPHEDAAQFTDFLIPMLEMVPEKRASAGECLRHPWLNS
# Chain of UniProt P22607 (whole entry, looked up): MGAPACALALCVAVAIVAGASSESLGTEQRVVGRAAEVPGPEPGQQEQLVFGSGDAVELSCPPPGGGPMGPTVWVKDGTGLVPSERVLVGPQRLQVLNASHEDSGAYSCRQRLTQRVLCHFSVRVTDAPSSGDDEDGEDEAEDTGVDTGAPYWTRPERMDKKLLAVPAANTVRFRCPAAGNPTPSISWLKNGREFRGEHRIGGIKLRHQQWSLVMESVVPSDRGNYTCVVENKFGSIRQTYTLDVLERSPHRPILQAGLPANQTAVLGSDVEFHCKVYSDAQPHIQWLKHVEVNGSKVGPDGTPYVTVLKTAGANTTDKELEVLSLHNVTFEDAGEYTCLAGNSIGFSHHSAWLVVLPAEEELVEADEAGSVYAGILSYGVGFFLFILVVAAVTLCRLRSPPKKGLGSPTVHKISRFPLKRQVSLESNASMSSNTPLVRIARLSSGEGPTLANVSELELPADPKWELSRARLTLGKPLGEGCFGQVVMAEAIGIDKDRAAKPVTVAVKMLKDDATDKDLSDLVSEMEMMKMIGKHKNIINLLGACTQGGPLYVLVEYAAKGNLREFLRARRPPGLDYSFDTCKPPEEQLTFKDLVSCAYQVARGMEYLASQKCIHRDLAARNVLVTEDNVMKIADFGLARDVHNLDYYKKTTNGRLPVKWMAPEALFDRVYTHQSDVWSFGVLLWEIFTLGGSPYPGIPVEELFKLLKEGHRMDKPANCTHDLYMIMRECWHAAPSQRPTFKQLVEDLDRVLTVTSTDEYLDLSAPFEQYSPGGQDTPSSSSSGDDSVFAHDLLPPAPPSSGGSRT
# Chain of UniProt P42684 (whole entry, looked up): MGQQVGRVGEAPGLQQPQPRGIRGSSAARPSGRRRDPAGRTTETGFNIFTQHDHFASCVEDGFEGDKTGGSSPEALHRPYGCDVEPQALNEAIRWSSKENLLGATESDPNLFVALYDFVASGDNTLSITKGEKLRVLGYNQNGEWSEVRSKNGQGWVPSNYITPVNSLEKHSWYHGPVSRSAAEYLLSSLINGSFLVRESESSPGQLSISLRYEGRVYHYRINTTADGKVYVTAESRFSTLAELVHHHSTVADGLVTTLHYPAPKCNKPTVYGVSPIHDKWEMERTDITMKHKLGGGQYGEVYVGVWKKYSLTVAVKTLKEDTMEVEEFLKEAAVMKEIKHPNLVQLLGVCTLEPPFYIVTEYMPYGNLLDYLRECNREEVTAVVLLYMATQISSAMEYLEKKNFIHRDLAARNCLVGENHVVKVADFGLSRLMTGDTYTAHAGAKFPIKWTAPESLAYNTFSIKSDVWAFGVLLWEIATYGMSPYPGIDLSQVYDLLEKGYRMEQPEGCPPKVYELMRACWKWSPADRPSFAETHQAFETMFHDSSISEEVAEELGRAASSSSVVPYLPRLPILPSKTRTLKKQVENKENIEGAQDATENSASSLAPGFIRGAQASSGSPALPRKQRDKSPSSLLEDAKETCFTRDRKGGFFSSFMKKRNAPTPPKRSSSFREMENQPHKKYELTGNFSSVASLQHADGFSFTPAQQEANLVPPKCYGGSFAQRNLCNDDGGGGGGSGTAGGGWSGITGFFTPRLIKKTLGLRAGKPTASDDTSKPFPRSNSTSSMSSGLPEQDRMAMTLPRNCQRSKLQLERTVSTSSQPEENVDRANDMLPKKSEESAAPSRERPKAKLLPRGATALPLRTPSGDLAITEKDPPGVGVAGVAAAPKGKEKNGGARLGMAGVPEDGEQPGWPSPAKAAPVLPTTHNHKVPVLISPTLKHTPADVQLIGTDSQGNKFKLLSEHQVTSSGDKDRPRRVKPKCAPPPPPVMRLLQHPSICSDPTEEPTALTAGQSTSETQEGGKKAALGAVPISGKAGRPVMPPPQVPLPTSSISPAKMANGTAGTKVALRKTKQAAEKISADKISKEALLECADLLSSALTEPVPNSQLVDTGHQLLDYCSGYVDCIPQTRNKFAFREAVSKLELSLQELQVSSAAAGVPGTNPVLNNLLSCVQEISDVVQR
# Chain of UniProt O14733 (whole entry, looked up): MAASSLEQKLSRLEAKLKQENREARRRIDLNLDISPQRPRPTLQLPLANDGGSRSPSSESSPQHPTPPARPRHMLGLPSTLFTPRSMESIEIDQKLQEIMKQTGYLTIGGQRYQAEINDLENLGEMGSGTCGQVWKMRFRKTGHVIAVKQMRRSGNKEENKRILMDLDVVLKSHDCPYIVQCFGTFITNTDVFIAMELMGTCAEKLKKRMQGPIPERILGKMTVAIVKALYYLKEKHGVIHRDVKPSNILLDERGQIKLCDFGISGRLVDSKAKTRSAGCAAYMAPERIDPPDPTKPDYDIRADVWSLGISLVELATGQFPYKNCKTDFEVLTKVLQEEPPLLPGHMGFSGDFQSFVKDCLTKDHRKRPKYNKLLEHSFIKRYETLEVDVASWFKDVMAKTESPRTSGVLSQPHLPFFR
# Chain of UniProt Q96PY6 (whole entry, looked up): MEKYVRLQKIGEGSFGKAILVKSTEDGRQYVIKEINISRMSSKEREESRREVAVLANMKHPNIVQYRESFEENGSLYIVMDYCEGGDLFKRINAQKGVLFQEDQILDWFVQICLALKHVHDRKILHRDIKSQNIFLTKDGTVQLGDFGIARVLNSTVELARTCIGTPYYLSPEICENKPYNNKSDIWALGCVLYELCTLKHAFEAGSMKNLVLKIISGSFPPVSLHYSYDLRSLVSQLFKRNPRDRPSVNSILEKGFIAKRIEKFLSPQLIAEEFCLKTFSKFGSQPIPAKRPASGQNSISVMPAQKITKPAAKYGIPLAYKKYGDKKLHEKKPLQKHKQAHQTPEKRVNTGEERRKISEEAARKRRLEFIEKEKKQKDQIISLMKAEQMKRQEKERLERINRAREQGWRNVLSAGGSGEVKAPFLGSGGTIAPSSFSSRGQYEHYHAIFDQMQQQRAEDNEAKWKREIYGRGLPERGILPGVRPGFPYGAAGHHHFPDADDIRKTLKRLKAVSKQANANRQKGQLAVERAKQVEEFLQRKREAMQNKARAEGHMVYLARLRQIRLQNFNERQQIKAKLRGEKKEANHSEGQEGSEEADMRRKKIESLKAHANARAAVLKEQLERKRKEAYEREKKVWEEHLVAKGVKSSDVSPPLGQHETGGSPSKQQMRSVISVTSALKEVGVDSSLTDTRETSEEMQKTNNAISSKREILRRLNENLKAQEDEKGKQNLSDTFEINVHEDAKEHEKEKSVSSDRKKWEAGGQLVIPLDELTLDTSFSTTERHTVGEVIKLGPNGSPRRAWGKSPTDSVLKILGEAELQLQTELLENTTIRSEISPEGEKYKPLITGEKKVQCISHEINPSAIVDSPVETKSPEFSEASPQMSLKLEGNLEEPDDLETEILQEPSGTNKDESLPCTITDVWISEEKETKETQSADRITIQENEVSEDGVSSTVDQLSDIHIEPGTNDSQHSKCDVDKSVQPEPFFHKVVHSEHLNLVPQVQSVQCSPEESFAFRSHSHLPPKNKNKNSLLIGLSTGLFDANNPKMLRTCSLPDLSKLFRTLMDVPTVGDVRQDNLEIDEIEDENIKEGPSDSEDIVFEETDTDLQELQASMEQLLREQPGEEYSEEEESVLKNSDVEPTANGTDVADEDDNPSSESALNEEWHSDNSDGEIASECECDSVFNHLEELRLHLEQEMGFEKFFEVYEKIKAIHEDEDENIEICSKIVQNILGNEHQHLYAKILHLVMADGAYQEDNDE
# Chain of UniProt Q9HC98 (whole entry, looked up): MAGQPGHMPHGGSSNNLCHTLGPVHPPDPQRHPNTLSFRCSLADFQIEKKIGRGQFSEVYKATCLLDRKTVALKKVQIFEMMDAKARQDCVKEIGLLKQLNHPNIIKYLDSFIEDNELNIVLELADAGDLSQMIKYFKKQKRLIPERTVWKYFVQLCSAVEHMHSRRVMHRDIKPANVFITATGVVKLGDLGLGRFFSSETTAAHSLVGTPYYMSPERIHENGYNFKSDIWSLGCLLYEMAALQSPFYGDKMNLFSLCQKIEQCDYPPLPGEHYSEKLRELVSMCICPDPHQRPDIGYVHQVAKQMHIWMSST

# Study 1
# Structure (SMILES): C[C@H](c1ccc(F)cc1)N(Cc1cccc(C(=O)O)c1)C(=O)c1cnc2ccccc2c1
# Effect on: cell-free assay
# Technique: competition with immobilised ligand
# Tested at: 1 µM
target,remaining binding
"MAP2K7 (Homo sapiens, UniProt O14733)",100%
"TNIK (Homo sapiens, UniProt Q9UKE5)",95%
"SRPK2 (Homo sapiens, UniProt P78362)",98%
"DDR1 (Homo sapiens, UniProt Q08345)",100%

# Study 2
# Target: Histone acetyltransferase KAT6A, winged helix 2, GST fusion (KAT6A, Homo sapiens, UniProt Q92794, residues 85-181)
# Technique: protein binding microarray
# Molecule type: double-stranded DNA, one strand shown
# Sample: in vitro
# Tested at: not given
# Setting: 8-mer, flanks averaged, mean of 2 arrays, mostly near background
# Baseline: not given
# Reading: higher = stronger binding
# Residues (chain): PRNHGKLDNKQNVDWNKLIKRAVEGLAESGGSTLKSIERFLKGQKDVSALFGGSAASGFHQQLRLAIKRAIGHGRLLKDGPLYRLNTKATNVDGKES
Strand,E-score
CGCTCCGC,0.254
GGGCAACA,0.1
GTGCTCGA,-0.00604
ATATGTAG,0.0297
CTGGCTCA,0.0404
GGTTTTAA,0.0529
AACTCCTT,-0.157
ATCATACA,0.114

# Study 3
# Target: Eukaryotic initiation factor 4A-I (EIF4A1, Homo sapiens, UniProt P60842, residues 1-406, full length assumed)
# Chain of UniProt P60842 (whole entry, looked up): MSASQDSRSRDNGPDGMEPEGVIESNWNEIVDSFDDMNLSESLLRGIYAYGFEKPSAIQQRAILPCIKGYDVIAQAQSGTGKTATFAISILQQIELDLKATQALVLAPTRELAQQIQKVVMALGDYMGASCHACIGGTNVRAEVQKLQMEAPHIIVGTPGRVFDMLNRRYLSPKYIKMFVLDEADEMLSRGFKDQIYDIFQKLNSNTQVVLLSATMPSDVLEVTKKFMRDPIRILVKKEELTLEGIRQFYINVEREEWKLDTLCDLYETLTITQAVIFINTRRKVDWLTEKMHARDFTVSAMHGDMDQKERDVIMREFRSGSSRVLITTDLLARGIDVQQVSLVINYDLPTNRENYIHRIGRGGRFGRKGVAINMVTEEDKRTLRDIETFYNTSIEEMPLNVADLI
# Technique: RNA Bind-n-Seq
# Molecule type: RNA
# Sample: in vitro
# Tested at: 15 pmol
# Setting: 4-mer, random 30-nt RNA, single round
# Together with: 3 µM DMDA-PatA, 2 mM AMP-PNP
# Baseline: input library
# Reading: higher = stronger binding
Strand,4-mer enrichment
CCAC,0.341 fold
CCGU,0.616 fold
GAUU,1.2 fold
GUGA,1.47 fold
UUAC,0.834 fold
UGUC,0.919 fold
GCGG,1.18 fold
CCCA,0.526 fold

# Study 4
# Structure (SMILES): CCCCc1c(-c2ccc(OC)cc2)[nH]c2nccnc12
# Effect on: enzyme activity
# Action: inhibitor
# Tested at: 0.5 µM
# Baseline: control
target,remaining activity [%]
"NEK6 (Homo sapiens, UniProt Q9HC98)",111
"CSNK1G3 (Homo sapiens, UniProt Q9Y6M4)",89.2
"TAOK2 (Homo sapiens, UniProt Q9UL54)",90.1
"FGFR3 (Homo sapiens, UniProt P22607)",86.8
"FRK (Homo sapiens, UniProt P42685)",86.5
"GRK7 (Homo sapiens, UniProt Q8WTQ7)",94.1
"MAP3K14 (Homo sapiens, UniProt Q99558)",105
"FGFR1 (Homo sapiens, UniProt P11362)",83.3
"CSNK1G2 (Homo sapiens, UniProt P78368)",92.5
"MAPK3 (Homo sapiens, UniProt P27361)",111
"JAK3 (Homo sapiens, UniProt P52333)",92.8
"EPHA3 (Homo sapiens, UniProt P29320)",91.9
"NEK1 (Homo sapiens, UniProt Q96PY6)",86.9
"ABL2 (Homo sapiens, UniProt P42684)",70.5

# Excerpt of the above (study 3):
Strand,4-mer enrichment
UUAC,0.834 fold
UGUC,0.919 fold
